Experimental data gathered from unrelated publications.
Numbered parts are unrelated; each lists some results of a single study. Substitutions count along the parent as printed.

Block 1
Target: Prothrombin, mature alpha-thrombin (F2, Homo sapiens, UniProt P00734)
Method: aptamer microarray, sandwich
Molecule type: DNA with 2'F-ANA
Sample: in vitro
Tested at: 200 nM
Notes: whole 15-mer aptamer, many near background
With: Cy3 exosite-II aptamer, 400 nM
Reading: higher = stronger binding
Sequence: GGTTGGTGTGGTTGG
Modification	mean fluorescence intensity
2'F-ANA at 1 3 5 6 7 10 11 12	49.6 a.u.
2'F-ANA at 1 3 4 6 11 12 15	266 a.u.
2'F-ANA at 2 5 7 9 11 13 15	51 a.u.
2'F-ANA at 3 7 10 14	467 a.u.
2'F-ANA at 2 3 5 7 8 10 11 14	49.2 a.u.
2'F-ANA at 4 7 8 9 10 11 15	82.2 a.u.
2'F-ANA at 3 7 10 12 14	548 a.u.
2'F-ANA at 1 3 6 8 9 10 12 15	98 a.u.

Block 2
Target: Sal-like protein 4, full length isoform A (SALL4, Homo sapiens, UniProt Q9UJQ4, residues 1-1053)
Sequence of UniProt Q9UJQ4 (whole entry, looked up): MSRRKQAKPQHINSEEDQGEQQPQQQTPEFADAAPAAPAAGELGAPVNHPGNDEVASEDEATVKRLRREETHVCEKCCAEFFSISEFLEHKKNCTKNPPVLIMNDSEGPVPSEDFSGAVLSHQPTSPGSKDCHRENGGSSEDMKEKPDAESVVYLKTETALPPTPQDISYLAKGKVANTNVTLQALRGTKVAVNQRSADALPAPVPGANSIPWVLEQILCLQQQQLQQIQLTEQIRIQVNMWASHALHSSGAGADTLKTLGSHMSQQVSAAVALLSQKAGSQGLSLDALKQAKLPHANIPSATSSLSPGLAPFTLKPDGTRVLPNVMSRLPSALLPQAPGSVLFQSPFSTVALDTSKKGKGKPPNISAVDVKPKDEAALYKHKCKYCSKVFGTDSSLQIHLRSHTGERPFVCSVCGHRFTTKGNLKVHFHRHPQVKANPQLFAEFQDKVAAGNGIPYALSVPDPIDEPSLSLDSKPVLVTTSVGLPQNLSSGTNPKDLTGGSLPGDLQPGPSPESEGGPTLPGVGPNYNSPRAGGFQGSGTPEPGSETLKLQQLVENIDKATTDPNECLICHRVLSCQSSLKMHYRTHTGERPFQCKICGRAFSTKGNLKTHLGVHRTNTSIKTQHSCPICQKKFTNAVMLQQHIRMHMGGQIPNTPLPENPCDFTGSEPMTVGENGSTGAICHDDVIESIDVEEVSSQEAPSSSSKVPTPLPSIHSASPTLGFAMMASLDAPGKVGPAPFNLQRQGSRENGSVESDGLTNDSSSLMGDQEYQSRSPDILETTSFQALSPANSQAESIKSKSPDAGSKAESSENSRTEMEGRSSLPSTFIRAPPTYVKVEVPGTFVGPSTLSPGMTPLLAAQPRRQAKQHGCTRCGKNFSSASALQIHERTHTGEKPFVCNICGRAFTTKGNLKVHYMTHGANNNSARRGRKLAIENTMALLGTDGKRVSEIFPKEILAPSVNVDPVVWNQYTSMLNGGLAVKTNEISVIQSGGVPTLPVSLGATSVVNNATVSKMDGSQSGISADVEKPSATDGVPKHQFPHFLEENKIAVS
Method: universal PBM
Molecule type: double-stranded DNA, one strand shown
Sample: in vitro
Tested at: 600 nM
Notes: 8-mer, flanks averaged, mean of replicates
Reading: higher = stronger binding
Sequence	E-score
GCCCAGGC	-0.298
GACACTAC	-0.0507
ACAGTGTG	0.128
ACATGCGC	-0.151
ATGTCATA	0.342
AGACGGAC	-0.241
GTTTAAAA	0.17
CCGTATAA	0.046

Block 3
Target: UBE2G2 UBC core domain (UniProt P60604)
Method: yeast two-hybrid
Sample: yeast
Notes: mostly zero background
Baseline: not given
Reading: higher = stronger interaction
B1: TRIM37 RING domain (UniProt O94972); chain SVESIAEVFRCFICMEKLRDARLCPHCSKLCCFSCIRRWLTEQRAQCPHCRAPLQLRELVN
B2: RNF152 RING domain (UniProt Q8N8N0); chain ETLSQDSLLECQICFNYYSPRRRPKLLDCKHTCCSVCLQQMRTSQKDVRCPWCRGVTKLPPGFS
B3: TRIM26 RING domain (UniProt Q12899); chain PLRSLEEEVTCSICLDYLRDPVTIDCGHVFCRSCTTDVRPISGSRPVCPLCKKPFKKENIRP
B4: TRIM31 RING domain (UniProt Q9BZY9); chain FVNKLQEEVICPICLDILQKPVTIDCGHNFCLKCITQIGETSCGFFKCPLCKTSVRKNAIRF
B5: RNF166 RING domain (UniProt Q96A37); chain GDSGLEAQYTCPICLEVYHRPVAIGSCGHTFCGECLQPCLQVPSPLCPLCRLPFDPKKVDK
Residues (chain): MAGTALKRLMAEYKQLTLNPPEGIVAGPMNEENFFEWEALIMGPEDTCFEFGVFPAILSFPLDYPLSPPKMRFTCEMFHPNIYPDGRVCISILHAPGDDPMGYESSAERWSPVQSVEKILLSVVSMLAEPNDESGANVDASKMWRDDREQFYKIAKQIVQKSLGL
Molecule	lacZ reporter activity
B1 (TRIM37 RING domain)	0
B2 (RNF152 RING domain)	0
LDAASGHPLVCPLCHGQYERPCLLDCFHDFCTGCLRGRATDGRLSCPLCQHQTLVKGPSG (Rnf207 RING domain (UniProt Q3V3A7))	0
KPDKMEETLTCIICQDLLHDCVSLQPCMHTFCAACYSGWMERSSLCPTCRCPVERICKNH (CHFR RING domain (UniProt Q96EP1))	9470
B3 (TRIM26 RING domain)	0
B4 (TRIM31 RING domain)	17500
B5 (RNF166 RING domain)	15700
FVKTVEDKYKCEKCHLVLCSPKQTECGHRFCESCMAALLSSSSPKCTACQESIVKDKVF (TRAF3 RING domain (UniProt Q13114))	0

Single results of other studies
Starting sequence: viral docking peptide; KGVKRKLFAEDSS
Variant	target	assay	system	setting	scale	endpoint	value
V3R	CCNE1, cyclin fold, Cln2 fusion (human)	yeast growth competition, sequencing	yeast	strong parent motif	baseline: not given, higher = stronger binding	normalised enrichment score	0.347

Excerpt of the above (block 3):
Molecule	lacZ reporter activity
B1 (TRIM37 RING domain)	0
B2 (RNF152 RING domain)	0
LDAASGHPLVCPLCHGQYERPCLLDCFHDFCTGCLRGRATDGRLSCPLCQHQTLVKGPSG (Rnf207 RING domain (UniProt Q3V3A7))	0
